Measurements collected from several papers.
Protocols differ between the studies behind these lines. ± marks the error that the study gave.

Chains of the proteins cited; added tags and fusions are not shown. Residues count along the entry.
UniProt P53779, 1-422 isoform 2: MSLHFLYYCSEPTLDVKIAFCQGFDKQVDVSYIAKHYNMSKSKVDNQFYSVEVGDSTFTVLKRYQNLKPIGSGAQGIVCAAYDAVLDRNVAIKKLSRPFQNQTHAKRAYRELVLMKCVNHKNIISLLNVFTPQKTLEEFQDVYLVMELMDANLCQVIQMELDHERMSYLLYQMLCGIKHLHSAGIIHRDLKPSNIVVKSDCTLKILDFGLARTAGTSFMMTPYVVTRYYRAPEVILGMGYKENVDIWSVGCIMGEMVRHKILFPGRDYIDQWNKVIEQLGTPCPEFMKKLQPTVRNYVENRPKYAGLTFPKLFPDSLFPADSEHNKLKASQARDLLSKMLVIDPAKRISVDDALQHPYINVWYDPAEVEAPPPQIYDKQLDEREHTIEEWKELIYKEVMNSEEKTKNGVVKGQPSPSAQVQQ

For `Cc1nn(C)c2c(C(C(=O)O)N3CC(OCCCCc4ccc5c(n4)NCCC5)C3)cccc12` (stereo not shown), FAK phosphorylation read “decreased” (rat, Sugen/hypoxia model, distal pulmonary arteries; reference: vehicle or IgG).
`N=C(N)NCCC[C@H](NC(=O)[C@@H]1CSSC[C@H](NC(=O)[C@H](Cc2ccc3ccccc3c2)NC(=O)[C@H](CCCNC(=N)N)NC(=O)[C@H](CCCNC(=N)N)NC(=O)c2ccc(F)cc2)C(=O)N[C@@H](Cc2ccc(O)cc2)C(=O)N[C@@H](CCCNC(N)=O)C(=O)N[C@@H](CCCCN)C(=O)N[C@H](CCCCN)C(=O)N2CCC[C@H]2C(=O)N[C@@H](Cc2ccc(O)cc2)C(=O)N[C@@H](CCCNC(=N)N)C(=O)N[C@@H](CCCNC(N)=O)C(=O)N1)C(N)=O` — result for “white blood cell count”: 4 fold (cell mobilization, antagonist, flow cytometry; normal mice, peripheral blood; subcutaneous, 50 µg per mouse, 30 min, 1, 2 h; reference: untreated mice).
Under mRNA level, `Cc1ncsc1-c1ccc([C@H](C)NC(=O)[C@@H]2C[C@@H](O)CN2C(=O)[C@@H](NC(=O)CCCCCCC(=O)N2CCN(C[C@]3(C)CCC(c4ccc(Cl)cc4)=C(CN4CCN(c5ccc(C(=O)NS(=O)(=O)c6ccc(N[C@H](CCN7CCOCC7)CSc7ccccc7)c(S(=O)(=O)C(F)(F)F)c6)cc5)CC4)C3)CC2)C(C)(C)C)cc1` is recorded as “no effect” (item: Ccl2 and Ccl5; STAM mice NASH-HCC model, liver; dose not given, day 150, treated days 45-90).
`CC(=O)N[C@H](C(=O)N[C@@H](CC(=O)O)C(=O)N[C@H](C(=O)N1CCc2cc(C)ccc2[C@@H]1C(=O)N[C@H](C=O)CC(=O)O)C(C)C)C(C)C` — result for mEPSC frequency: “no effect” (primary hippocampal neurons, PS19 mouse, P301S tau transgenic; 10 µM, 3 days).
For `NC(=O)c1nn(CC(=O)N2[C@@H]3C[C@@H]3C[C@H]2C(=O)Nc2cccc(Br)n2)c2ccccc12`, the IC50 was 0.05 µM (complement MAC deposition; 50% human serum; with: zymosan).
`O=C(NNC(=S)Nc1cccc(C(F)(F)F)c1)c1cccn1-c1ccc(F)cc1`: p-tau level “decreased” (item: tau pS396/pS404; rTg4510 mouse 4-month-old, cultured brain slices; dose not given).
`COC(=O)[C@@H]1C(C=Nc2nccs2)=Cc2cc3c(cc2[C@H]1c1cc(OC)c(OC)c(OC)c1)OCO3` gave a selectivity index of 7.7 (Leishmania; mouse splenocytes; reference: CC50 over amastigote EC50).
`COC(=O)[C@@]1(C)C=C(C(=O)Nc2cccc(C(=O)NC34CC(Nc5nccc(-c6cccnc6)n5)(C3)C4)c2)C(=O)CC1` has a remaining activity of 0.0864 fraction of control (MAPK10 (Homo sapiens, UniProt P53779); enzyme activity, inhibitor; 4.938 µM).
`CCOC(=O)COC(=O)[C@@H]1C(C=O)=Cc2cc3c(cc2[C@H]1c1cc(OC)c(OC)c(OC)c1)OCO3` has a selectivity index of 2.4 (Leishmania infantum; Alamar Blue; HepG2; reference: CC50 HepG2 over EC50 amastigotes).
`CCCCN(CCc1ccc(Cl)c(Cl)c1)C[C@H](O)COc1ccc(NS(C)(=O)=O)cc1`: “infarct volume reduction” at most 50% (mouse, transient MCAO; intraperitoneal, dose not given, 20 min before occlusion).
`CCC1NC(=O)C(CCCNC(=N)N)NC(=O)C(C)(NC(=O)C(C)C)CCCCNC(=O)C(c2ccccc2)NC1=O` (stereo not shown): cell growth “no effect” (CellTiter-Glo; Hoxa9/Meis1 leukaemia cells, mouse; dose not given).
The apoptotic cells of `CC(=NN=c1[nH]c2cc(F)c(F)cc2n1C)c1ccc(F)cn1` is reported as 4 to 5% (item: cleaved caspase-3; MDA-MB-231 xenograft, SCID mice; 10 mg/kg/day).
`C[C@@H]1CN(C2CCC2)CC[C@H](O[C@H]2[C@@H](O)C[C@H](O[C@H]3[C@@H](O)C[C@H](O[C@H]4CC[C@@]5(C)[C@H](CC[C@@H]6[C@@H]5C[C@@H](O)[C@]5(C)[C@@H](C7=CC(=O)OC7)CC[C@]65O)C4)O[C@@H]3C)O[C@@H]2C)O1`: “peak stimulus-induced K+ rise” 143 ± 13% (rat hippocampal slices; 10 µM, ~14 min, trace 2, with: electrical stimulation; reference: pre-drug control).
